Published values pooled from the literature.
Protocols differ between the studies behind these lines. ± gives the spread as reported.
Organism: HIV-1

| SMILES | assay | system | setting | how to read | measurement | value |
| --- | --- | --- | --- | --- | --- | --- |
| C=C(C)[C@@]12C[C@@H](COC(=O)c3ccccc3)[C@@]34OC5(O[C@@H]1[C@@H]3[C@@H]1O[C@]1(CO)[C@@H](O)[C@@]1(O)[C@H]4[C@H]([C@H](C)[C@@H]1OC(=O)c1ccccc1)[C@H](C)CCCCCC[C@H]5O)O2 | viral replication | MT4, NL4-3 |  |  | IC50 | 0.15 ± 0.04 nM |
| Cn1c(Cn2ccc(C(F)(F)F)c(Oc3cc(Cl)cc(C#N)c3)c2=O)n[nH]c1=O | MTT | MT4, RT L100I/V179D/Y181C mutant |  | relative to: mutant EC50 over IIIB EC50 | resistance fold | 13 |
| O=C(/C=C(\O)C(=O)N1CCN(c2ccc(-n3cccc3)cc2)CC1)c1cc(Cc2cc(F)cc(F)c2)cn(Cc2ccccc2F)c1=O | viral replication | MAGI-R5 |  |  | EC50 | 50 ± 10 nM |
| O=C(c1ccc(OS(=O)(=O)F)cc1O)c1ccc(OS(=O)(=O)F)cc1O | infectivity of produced virus | NL4-3 ΔEnv-GFP VSV-G pseudotyped |  |  | EC50 | 5700 ± 2500 nM |
| Nc1ccn([C@@H]2CS[C@H](CO)O2)c(=O)n1 | MTT | MT4, RT A98G/V106I/V179D/Y181C/G333E mutant |  | relative to: mutant EC50 over IIIB EC50 | resistance fold | 1.9 |
| Cc1c(O)cccc1C(=O)N[C@@H](CSc1ccccc1)[C@H](O)CN1C[C@H]2CCCC[C@H]2C[C@H]1C(=O)NC(C)(C)C | viral infection |  |  |  | EC50 | > 20000 nM |
| O=C(c1ccc(-n2sc3ncccc3c2=O)cc1)N1CCOCC1 | viral replication |  |  |  | IC50 | ~3000 nM |
| Cc1ccnc2c1NC(=O)c1cccnc1N2C1CC1 | MTT | MT4, RT A98G/V106I/V179D/Y181C/G333E mutant |  | relative to: mutant EC50 over IIIB EC50 | resistance fold | > 106 |
| C=CC(=O)n1c(=O)n(CCOc2ccccc2Oc2cccc3cc(C#N)ccc23)c2ccccc21 | viral cytopathic effect | MT-2, IIIB |  |  | EC50 | 0.5 ± 0.1 nM |
| CC(C)CN(C[C@@H](O)[C@H](Cc1cc(F)cc(F)c1)NC(=O)O[C@@H]1C[C@H]2C[C@@H]3[C@@H](OC[C@@H]31)O2)S(=O)(=O)c1ccc2nc(NC3CC3)sc2c1 | viral replication |  |  |  | IC50 | 1.7 ± 1.6 nM |
| C=CC(=O)N(C)CCOc1ccccc1Oc1cccc2cc(C#N)ccc12 | viral cytopathic effect | MT-2, IIIB |  |  | EC50 | 1.2 ± 0.4 nM |
| C=C(C)[C@]12C[C@@H](C)[C@@]34O[C@](CCCCCCCCCCC)(O[C@@H]1[C@@H]3[C@@H]1O[C@]1(CO)[C@@H](O)[C@]1(O)C(=O)C(C)=C[C@H]14)O2 | viral replication | MT-4, NL4-3 NanoLuc-sec reporter |  |  | IC50 | 0.82 ± 0.21 nM |
| N#C/C=C/c1ccc2c(S(=O)(=O)n3nc(Nc4ccc(C#N)c(Cl)c4)nc3N)cccc2c1 | viral replication | TZM-bl, A17 K103N/Y181C | 48 h |  | EC50 | 8.58 ± 1.09 nM |
| Cc1ccc(-n2sc3ccccc3c2=O)cc1 | viral replication | human macrophages, Ba-L |  |  | IC50 | 4000 nM |
| C=C(C)[C@@]12O[C@@]3(c4ccccc4)O[C@@H]1[C@@H]1[C@@H]4O[C@]4(CO)[C@@H](O)[C@]4(O)C(=O)C(C)=C[C@H]4[C@@]1(O3)[C@H](C)[C@H]2OC(=O)/C=C/C=C/c1ccccc1 | viral replication, luciferase reporter | MT-4, NL4-3 Nanoluc-sec |  |  | EC50 | 0.84 ± 0.2 nM |
| COc1cc(-n2sc3ccccc3c2=O)ccc1F | viral replication |  | 3 µM |  | inhibition | > 60% |
| CC(C)CN(C[C@@H](O)[C@H](Cc1ccccc1)NC(=O)O[C@H]1CO[C@H]2OCC[C@H]21)S(=O)(=O)c1ccc(N)cc1 | viral replication | MT2 |  |  | EC50 | 4 nM |
| c1cc(CN2CCCNCCNCCCNCC2)ccc1CN1CCCNCCNCCCNCC1 | viral replication | MT-4, NL4.3 |  |  | EC50 | 5.35 ng/mL |
| Cc1ccc(-n2sc3ccccc3c2=O)cc1S(=O)(=O)N1CCCC1 | viral replication |  | 3 µM |  | inhibition | > 50% |
| COCCN1C(=O)/C(=C\NNC(=O)c2cc(Cl)ccc2O)C(=O)NC1=S | viral replication | MT4, IIIB |  |  | EC50 | > 40000 nM |
| O=C(c1cc(-n2sc3ncccc3c2=O)ccc1Cl)N1CCOCC1 | viral replication |  | 3 µM |  | inhibition | > 50% |
| Cc1cc(C#N)cc(C)c1Oc1nc(Nc2ccc(C#N)cc2)nc(N)c1Br | MTT | MT4, RT A98G/V106I/V179D/Y181C/G333E mutant |  | relative to: mutant EC50 over IIIB EC50 | resistance fold | 176 |

A few entries again:
| SMILES | assay | system | setting | how to read | measurement | value |
| --- | --- | --- | --- | --- | --- | --- |
| C=CC(=O)N(C)CCOc1ccccc1Oc1cccc2cc(C#N)ccc12 | viral cytopathic effect | MT-2, IIIB |  |  | EC50 | 1.2 ± 0.4 nM |
| C=C(C)[C@]12C[C@@H](C)[C@@]34O[C@](CCCCCCCCCCC)(O[C@@H]1[C@@H]3[C@@H]1O[C@]1(CO)[C@@H](O)[C@]1(O)C(=O)C(C)=C[C@H]14)O2 | viral replication | MT-4, NL4-3 NanoLuc-sec reporter |  |  | IC50 | 0.82 ± 0.21 nM |
